Experimental data of several laboratories.
A part holds a random share of what one study measured. Changes are numbered by the printed parent chain.

Series 1
Target: Histone acetyltransferase KAT6A, winged helix 2, GST fusion (KAT6A, Homo sapiens, UniProt Q92794, residues 85-181)
Technique: protein binding microarray
Form: double-stranded DNA, one strand shown
Matrix: in vitro
Tested at: not given
Setting: 8-mer, flanks averaged, mean of 2 arrays, mostly near background
Baseline: not given
Direction: higher = stronger binding
Endpoint: E-score
Construct (chain): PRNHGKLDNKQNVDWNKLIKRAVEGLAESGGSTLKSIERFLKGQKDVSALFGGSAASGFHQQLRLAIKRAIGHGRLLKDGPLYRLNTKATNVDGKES
CTTTTATC: -0.00388
ATAGATCC: -0.103
GGGTAAAC: 0.0285
CACGTTCC: -0.15
AGCCAGCA: -0.0447
AATTCGGC: -0.0591
CCGACCAA: 0.162
ACCACCAA: -0.119
CGGTCGGC: 0.00441
CCGTAGGC: -0.0155
ACACTCCT: -0.159
GACATTGA: -0.0671
CCACGCAC: 0.19
CATTTGGC: 0.0557
GCTTCCCA: 0.0617
TCCTATCA: -0.0313
AACAGAGG: -0.0605
AGCTGGTG: 0.0828
GACCCGAA: 0.0837
ATGTAATC: -0.0816
ACCTAGAG: -0.0464
TCCTGACA: -0.00326
CTTCCAAG: 0.015
AACTCACA: 0.0867
CCGATTTA: 0.075

Series 2
Target: CCNB2, cyclin fold, Cln2 fusion (human)
Technique: yeast growth competition, sequencing
Matrix: yeast
Setting: weak parent motif
Baseline: not given
Direction: higher = stronger binding
Endpoint: normalised enrichment score
Starting sequence: PKN2 docking peptide (human); VSAVQKLDFSDTM; partner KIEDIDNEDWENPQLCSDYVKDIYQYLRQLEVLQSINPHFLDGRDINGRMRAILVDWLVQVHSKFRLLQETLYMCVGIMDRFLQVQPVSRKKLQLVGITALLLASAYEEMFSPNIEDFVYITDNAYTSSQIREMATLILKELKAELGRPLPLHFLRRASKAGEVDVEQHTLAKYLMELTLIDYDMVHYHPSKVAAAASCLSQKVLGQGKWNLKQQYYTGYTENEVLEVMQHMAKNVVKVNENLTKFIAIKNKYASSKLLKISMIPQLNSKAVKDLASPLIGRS
S2Q: 0.0648
K6Q: 0.102
V4C: -0.364
T12Q: -0.284
T12L: 0.296
S2M: -0.0632
Q5R: 0.805
D8N: -0.252
K6I: -0.533
S2W: -0.264
V1F: 0.396
S2V: 0.0778
K6W: -0.24
D8L: 0.235
D11V: -0.112
V1K: 0.217
D8W: 0.0837

Series 3
Target: Sal-like protein 4, full length isoform B (SALL4, Homo sapiens, UniProt Q9UJQ4-2, residues 1-616)
Technique: universal PBM
Form: double-stranded DNA, one strand shown
Matrix: in vitro
Tested at: not given
Setting: 8-mer, flanks averaged, mean of replicates
Direction: higher = stronger binding
Endpoint: E-score
Construct (chain): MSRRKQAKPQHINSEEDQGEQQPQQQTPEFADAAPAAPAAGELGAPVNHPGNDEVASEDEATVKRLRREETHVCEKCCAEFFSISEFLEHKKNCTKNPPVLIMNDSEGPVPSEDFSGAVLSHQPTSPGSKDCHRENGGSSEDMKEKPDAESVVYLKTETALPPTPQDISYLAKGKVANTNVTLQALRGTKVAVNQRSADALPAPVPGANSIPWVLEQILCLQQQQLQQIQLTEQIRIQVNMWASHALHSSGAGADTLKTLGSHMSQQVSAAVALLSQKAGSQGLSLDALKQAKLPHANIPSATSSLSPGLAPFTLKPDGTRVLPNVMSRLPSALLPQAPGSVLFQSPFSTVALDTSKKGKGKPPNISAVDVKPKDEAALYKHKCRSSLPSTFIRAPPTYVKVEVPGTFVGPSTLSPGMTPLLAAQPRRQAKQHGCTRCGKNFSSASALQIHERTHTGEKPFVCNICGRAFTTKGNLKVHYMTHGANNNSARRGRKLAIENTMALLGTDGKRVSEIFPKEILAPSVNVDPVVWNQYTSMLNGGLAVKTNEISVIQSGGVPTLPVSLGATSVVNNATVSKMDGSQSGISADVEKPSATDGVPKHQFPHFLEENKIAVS
GATTCTAC: -0.0879
AATACGAT: 0.3
AAATGCTT: 0.188
CGTGTCAA: -0.166
AAGCAACT: 0.112
AGGCTGTC: -0.224
CCCCCAGA: -0.176
CTAGTTGA: -0.0328
AAGCTGCG: -0.284
ACTGCTGG: -0.197
ATGTAATC: 0.265
CTTCGCCA: -0.119
CAGACTCG: -0.123
ATGAGTAG: 0.093
GCCTAGAA: 0.0308
CCGCCCTC: -0.258
AATTCTGA: 0.151
ACGTTGGG: -0.257
CCGCACAC: -0.205
CCAACTCG: -0.121
AGGAGGCA: -0.283
AACGATAG: 0.169
ATTGGCAG: -0.122
CGATGGAG: -0.183
AATCCGGA: -0.0367

Series 4
Target: Hepatocyte nuclear factor 3-alpha (Foxa1, Mus musculus, UniProt P35582, residues 1-468, full length assumed)
Technique: EMSA with sequencing
Form: double-stranded DNA, one strand shown
Matrix: in vitro
Tested at: 10 and 20 nM
Setting: whole designed probe, mean of two concentrations, ends assumed
Baseline: negative control set to 0
Direction: higher = stronger binding
Endpoint: normalised bound fraction
Shared flanks, not repeated: GTGAGCGGTGCCCATTGATGGGGAAC … TTTCACTGGGATCGTGGGGAC
Target sequence (chain): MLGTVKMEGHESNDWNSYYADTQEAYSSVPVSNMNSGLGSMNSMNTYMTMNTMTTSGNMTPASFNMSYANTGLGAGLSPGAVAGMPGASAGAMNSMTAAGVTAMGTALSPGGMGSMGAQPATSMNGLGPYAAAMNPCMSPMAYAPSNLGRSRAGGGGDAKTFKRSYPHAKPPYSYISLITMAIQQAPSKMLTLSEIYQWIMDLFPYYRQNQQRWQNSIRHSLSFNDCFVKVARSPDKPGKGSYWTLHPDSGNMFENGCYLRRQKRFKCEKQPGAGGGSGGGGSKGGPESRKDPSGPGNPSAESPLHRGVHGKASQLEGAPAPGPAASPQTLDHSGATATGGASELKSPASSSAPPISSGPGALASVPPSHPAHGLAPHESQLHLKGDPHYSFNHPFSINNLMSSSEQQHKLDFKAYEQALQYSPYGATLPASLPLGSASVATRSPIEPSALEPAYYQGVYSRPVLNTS
GGTAAAATAGTGCTTGGTTAGAGAAAGAGATTGGCTAATAGTTTGGGGAAACCACTTTTAAGATAGGTATTATTTTAGTGCAACAAAATTGTTGTTTACTTAGGTTTATTCAAAACCTAAAGAGTTTAACTTAGCTTTTTACTGAACATAATTTAATTTCAGAAGTCATTTAGGATCTTGAGAACCTTCAGAT: 0.43 ratio
ATCTTCCCCCTCTTCCTTGCCCCACCAGCTCACCTACGGGGGTTATTTGCACAAAGGAAAATAAATAAAGCCGGCATTCGTTAACCCTCTTCTGGCGCAAACTGCTGTTTGCTCTGGATCTAACATGGTCCTTTGGCGAGGCGTGGCTCCGGGAGAGCAAAGCACCGTGTCAGGGCCATGATCCGGGCTCGCC: 0.381 ratio
GTGAATGCTGGAGTTGGGTTATGAAATCAGGCAGTTAAACTACAGTCTGTGTATTTAACCATAGGGCTGTGATTCAAGCCACTTGAAATAAGGATGTTTACAAAGAAATATTGATTCATAGCCATAATAGCAATTCAAATATTGACATAACATGCGGGGCATCTGTTCAAATTTAGATTACCACATCACACAG: 0.429 ratio
AACTTTCATGCACAAAAAGACACATGAGCATCATCTAATAAATATTCCTTCTTGTTACAGATGAGAAACAGGCTGGGCATGGTGACTCATGCCTGTTTACCCAGCACTTTACAAGGCCAAGATGGGAGGATCACTTGAGCCCAGGGGCTCGAGACCAGCCTGGGCAACATGGTGAGACCTCATCTCTACAAAA: 0.286 ratio
ATCTTCCCCCTCTTCCTTGCCCCACCAGCTCACCTTCCCGGGTTATTTGCACAAAGGAAAATAAATAAAGCCGGCATTCGTTAACGCAGTTCACGCGCATACTGCTGTTTGCTCTGCATCTAACATGGTCCTTACGCGAGGCGTGGCTCCGGGAGAGCAAAGCACCGTGTCAGGCGCATGATCCGGGCTCGCC: 0.386 ratio
ATTAGTTCATGCCAGGCAGGGTTTGACCAAAACCTTGGACTCACTCCTGTCTGCTTTCCTTCAGAGACTATGAGGATTCCTGAGATGGATGTGCAAACATGAAGTGTTTACTTTCCTCCATGGGAATGTACTTCTGGCTTCCACTCCTCAGCTGCTGCTGCTAAGCCAGTGAGATAGATGGTGGTTTGGAAAC: 0.42 ratio
GATATTTCCTTCTTGATATCCCTGTAGTCCCTCAAATTGTCTATATTCTGAGTCATTTCTAAAATAAAAGGCCTCAATGCCAAGAGTTGTACTAAATTGCTTTATAACCTGTTTGGGTAAATTTACTTCAGAGGTATCATTTTCTGGAGATACTTTCTCAGGTCCATATTTTAACTCCAAATCTGAAAGAAAT: -0.0254 ratio
TACAGACTCACATTCACCTTGCGCCACACTACCTTTACGGTATAGTGAACTCCTTTCAGTCCCTTTCTTTCACAATAGTCTGCATAATCTAAGTAATCTGGAGACTTGTGTCTTTCACTGTTCCTAGACACTTCGCAACTAATATATTGCTTGCATATAGACACTAGATATCTCTGAATAAATCAACAGAAGA: 0.089 ratio

Series 5
Target: RNA binding protein fox-1 homolog 2, RRM domain, GST-SBP tag (RBFOX2, Homo sapiens, UniProt O43251-10, residues 100-194)
Technique: RNA Bind-n-Seq
Form: RNA
Matrix: in vitro
Tested at: 365 nM
Setting: natural RNA segment, single round, ends assumed
Baseline: no-protein control
Direction: higher = stronger binding
Endpoint: RBNS enrichment (R)
Shared flanks, not repeated: GGGAGUUCUACAGUCCGACGAUC … UGGAAUUCUCGGGUGCCAA
Target sequence (chain): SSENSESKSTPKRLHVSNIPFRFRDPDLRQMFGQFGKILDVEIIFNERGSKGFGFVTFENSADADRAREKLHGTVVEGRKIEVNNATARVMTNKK
UUGUCUUUUGGAGAAAAAAAACUGUACUGCUUGUUCAAGAGGGCUGUGAUUAAAAUCUUUAAGCAUUUGUUCCUGCCAAGGUAGUUUUCUUGCAUUUUGCUCUCCAUUCA: 0.715
CCUCUGCCUGCCUCAUGCCCCUUCCCCCUGGCCUACCAAGGACAGCCCACAGCCCGCACUGCCGGCUCACUUGGGUCCUUCCUCGAUAGCUUUGGGCAGAGCCCUUGCUU: 0.428
AUGGGAGACCCAAGGGGAACACAUGCUGCCUCUGCUGAAAGACCCUGGGUUUUUCUUGGAAGAAAGGACUCUAGGGUGGAUGGUACCAGGCCUUCAGGGUUAGAUCAUCU: 0.283
GGACUUUCUUCCCACCCCUUGCAGGGAGGUGUGAGCAGGAGACCCCUAGGGUGCCACUGAAUAAGAGACAGUAGAGAGCCCUGUCCUCUGGGGAUACAGCACCUGCUUCA: 0.439
UAAAGAAAUAGUUUUCUUAGAUAUUUGUCACAUACUACUUAAAUAAAAUUCUCUUGGGUUUAAUCUUUCUUGAGCCUUUCUCAGAAGUUUGGGCUUAAAUAUGCUCCAAA: 0.648
UGGCGCGCUGAUUAGACUUCAGUUCCUGAAAAGGACCAGUGGAGGGAAGAGCUAUACUUCUGGAGAAGUAGGCCUGGAGUUACUACAGUAUGGGGGAAAAGGGUCGAGUU: 1.01
CCUCACGGGUCACCCCAGCCCUCUGCAAAGCCUUGCCGUGCUAUGUUUCAGGUUCACGUUCAGCUCUGACCUUGAGUUCAUUUCCAGUGCUUGCCUUCUCUCCAAGGCCA: 0.485
AAGAAACCUGGCAUUUAAAUCAUAUUUUGUCUUUAGGUAAAAGCUUUGGUUUGUGUUCGUGUUUUGUUUGUUUCACUUGUUUCCCUCCCAGCCCCAAACCUUUUGUUCUC: 0.37
UUCUAGCCAGAUCAGCCACUGAGCGGUAAGCAUCAGCGCUCAGCAGAGCCUUCCGAGCAGCAUUUAGAAAGCACCUUUGGGAAUGAUGGACUGCAAGGGAGUGGGCGGAU: 13.1
AUGGCCUUUGUGGGAUUUAAUUCGGGGUUUGCUCAUCCCUUUACUUUAGGUGGAACUAUUUUCAGUGAAAUUUUCAAAAGGUAUUAACAGCACAGACAGUGUUUUUGACC: 0.537
CUUGGGUUGAGCCUGUGACUUGGUUUCUCUUUGUCCUUUUGGAAAAAUGACAAGCAUUGCAUCCCAGUCUUGUGUUCCGAAGUCAGUCGGAGUACUUGAAGAAGGCCCAC: 0.464
UCAUUGUUCUGCGAUUUAUUUUAGAGAUUGUCCAUGAGCACUGAACAAGGAGAAGAAGUUUCUUGUUGCUUUACAACAGUGUGUGCUAAGUGCUGGACUUGGCCAUGGGU: 0.734

For quick reference, copied from above (series 3):
AATTCTGA: 0.151
ACGTTGGG: -0.257
CCGCACAC: -0.205
CCAACTCG: -0.121
AGGAGGCA: -0.283
AACGATAG: 0.169
ATTGGCAG: -0.122
CGATGGAG: -0.183
